# Results of several laboratories.
# Every numbered part comes from another study and shows a few of its results, in no order.

# Sample 1 — technique: protein-binding microarray; form: double-stranded DNA, one strand shown; sample: in vitro; tested at: not given; direction: higher = stronger binding
# Target: Max-binding protein MNT, bHLH-zipper, MAX partner unstated (MNT, Homo sapiens, UniProt Q99583, residues 220-300)
# Notes: k-mer, scored over probes, only values ≥0.25
# Target sequence (chain): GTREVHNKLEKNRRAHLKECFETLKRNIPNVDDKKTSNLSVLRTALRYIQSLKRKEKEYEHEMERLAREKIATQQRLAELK
Strand,E-score
CGTGTGCA,0.391
CGTGCAGC,0.385
AGCCCCAC,0.336
ACGCGGGG,0.376
CATGAGGG,0.353
GGGCACAC,0.255
CCGCACGA,0.313
CTACACGC,0.4
CATGTGAG,0.444
CATGCATG,0.403
CCCTCCAC,0.263
TGGCCACA,0.346
CGTGTGTA,0.361
CACCCACG,0.382
GTGTGGGA,0.314
ACGCGAGG,0.328
CATGCTTC,0.392
AAACCACG,0.397

# Sample 2 — technique: RNA Bind-n-Seq; form: RNA; sample: in vitro; tested at: 200 nM; notes: whole 134-nt RNA, ends assumed; together with: 150 mM KCl; reference: input library; direction: higher = stronger binding
# Target: Fragile X messenger ribonucleoprotein 1, C-terminal low-complexity region (Fmr1, Mus musculus, UniProt P35922)
Strand,log2 enrichment
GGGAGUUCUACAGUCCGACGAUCCACAGACAACACGCACCCACACAGACACAGAGGGAAGGGGUUGGCAUGGGGACAGGGUGCACAGCAGGGCGGGGUAGGACCCCAGCCCCUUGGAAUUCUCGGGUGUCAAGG,1.3
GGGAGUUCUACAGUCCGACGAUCCAAGUCCUGUGCUACACAUCGUAUGUACCGAAUCGGGCCCGGGCCCGGGGCCCGGAAAGUAUUAUGUUACGCCGUUCGGAUCUGCACUUCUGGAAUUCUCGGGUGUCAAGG,-0.345
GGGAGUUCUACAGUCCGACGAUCUUCCCUCUGUUUUAUUUUUCCCCCGUGUGUCCCUACUAUGGUCAGAAAGCCUGUUGUGUCCACCAUCUCCAAAGGAGGUUACCUGCAGGGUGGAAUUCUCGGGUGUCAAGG,0.0113
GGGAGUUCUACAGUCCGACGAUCUGCUGUGUCACCGGGAACGCAAAGGCUGGGAAGAAGGCCCUUCUCAAAAUGGACUGGUGUUGCAGGGUGAGAAGCUGCCCCCUGACUUCAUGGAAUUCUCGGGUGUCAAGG,-0.368
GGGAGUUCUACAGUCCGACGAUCACCAUGCAGGUGGGCAUCUUUGUGAAGUGGGGCAAGGGGGGGAUAGGGAGGGGGGUAACACUUUGGGAACAGGUGGUCCCAGGUCGUUUCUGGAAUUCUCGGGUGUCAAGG,1.17
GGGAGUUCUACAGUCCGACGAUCUCAAGUCCUGUGCUACACAUCGUAUGUACCGAAUCGGAAAGGUGGUUUUUUUGGAAAGUAUUAUGUUACGCCGUUCGGAUCUGCACUUCCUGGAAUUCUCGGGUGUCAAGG,-0.664
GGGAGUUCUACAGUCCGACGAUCUGUGCUACACAUCGUAUGUACCGAAUCGGGCCCCCCCGGGGCCCCCCCGGGGCCCCCCCGGGAAAGUAUUAUGUUACGCCGUUCGGAUCUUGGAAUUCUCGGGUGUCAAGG,-1.53
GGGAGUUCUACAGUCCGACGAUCCUGUGCUACACAUCGUAUGUACCGAAUCGGGUUUUUUUGGGUUUUUUUGGGGUUUUUUUGGGAAAGUAUUAUGUUACGCCGUUCGGAUCUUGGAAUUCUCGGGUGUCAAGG,-0.201
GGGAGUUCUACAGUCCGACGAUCUCAAGUCCUGUGCUACACAUCGUAUGUACCGAAUCGGUUUGGGUUUGGGUUUGGAAAGUAUUAUGUUACGCCGUUCGGAUCUGCACUUCCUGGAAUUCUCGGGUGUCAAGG,-0.332
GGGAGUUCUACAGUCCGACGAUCUUUGAAGAUCAGCUUCAGCAAUGGUUGUCUGAAGACUCAGGAGCAUUUACGGAUUUAACUUCCCUUCCCCUCUAUCUUCCUCAGACUCUAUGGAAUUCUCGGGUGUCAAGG,-0.108
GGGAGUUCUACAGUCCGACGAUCAGUCCUGUGCUACACAUCGUAUGUACCGAAUCGGGGAGGGGUGGGGUUUUUUUGGGGAAAGUAUUAUGUUACGCCGUUCGGAUCUGCACUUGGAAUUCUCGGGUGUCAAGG,1.02
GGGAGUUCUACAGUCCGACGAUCCAAGUCCUGUGCUACACAUCGUAUGUACCGAAUCGGGUUUGGUUUGGGUUUGGGGAAAGUAUUAUGUUACGCCGUUCGGAUCUGCACUUCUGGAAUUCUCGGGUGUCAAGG,0.0294
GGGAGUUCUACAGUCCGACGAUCAGUCCUGUGCUACACAUCGUAUGUACCGAAUCGGAAAAAAAGGAAAGGUUUUUUUGGAAAGUAUUAUGUUACGCCGUUCGGAUCUGCACUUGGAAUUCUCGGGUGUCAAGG,-1.44
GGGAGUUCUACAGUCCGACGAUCAGUCCUGUGCUACACAUCGUAUGUACCGAAUCGGUUUUUGGUUUUUGGGUUUUUGGGAAAGUAUUAUGUUACGCCGUUCGGAUCUGCACUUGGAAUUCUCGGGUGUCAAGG,-0.669

# Sample 3 — technique: RNA Bind-n-Seq; form: RNA; sample: in vitro; tested at: 365 nM; reference: no-protein control; direction: higher = stronger binding
# Target: RNA binding protein fox-1 homolog 2, RRM domain, GST-SBP tag (RBFOX2, Homo sapiens, UniProt O43251-10, residues 100-194)
# Notes: natural RNA segment, single round, ends assumed
# Target sequence (chain): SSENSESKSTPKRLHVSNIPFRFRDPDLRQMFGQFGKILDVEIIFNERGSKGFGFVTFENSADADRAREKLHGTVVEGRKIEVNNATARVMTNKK
Strand,RBNS enrichment (R)
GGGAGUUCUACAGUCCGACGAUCCUGUCUUGGGGCCACUUUCAGAGCCCCCAGCCCUGGGAACCACUCCCACCACAGGCAUAAGCUAUCACCUAGCAGCCUCAAAACGGGUCAGUAUUAAGGUUUUCAACCGGUGGAAUUCUCGGGUGCCAA,0.314
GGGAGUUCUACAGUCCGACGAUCGAGACCCUGGCUGCAGCGGAAUUUUUUGUUUUUAGCAGGCUGUCCUGCCUGCUAUGAGGGGUGGAUACUGUUCCAGAUCUUUGGGGGAAUUGUUACCUCCUGUUGUUUUGUGGAAUUCUCGGGUGCCAA,0.465
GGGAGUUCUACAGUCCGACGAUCCAUAGUCGCCCCCAGCUGGGUUGUGCUCCACUGUGACGGUGGCCCGGGGGGAGGAUGCCAGCAGCCUGCCUAUGGCUCCAGCUGUGCUGUGGCCCAGCAGCAUGGCCUGCUGGAAUUCUCGGGUGCCAA,0.268
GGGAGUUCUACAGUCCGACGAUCGCCACUAUGCUUGGCUGGCCUUGCUCUUGCCACAAAAGCUCGUUGGAUGGAAAAAGCUGAAGCAAGUGGCUGUUCUCUGAUCAGGCGGGGGAUGCCUCUUUUCCUCGCGAUGGAAUUCUCGGGUGCCAA,0.492
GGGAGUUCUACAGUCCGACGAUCCUAUAUCUGUACAGAGUAUAUUCGGUAAGUGCACUAUUAAAUGUCUAAGGGAAGAGUCUGGCCUGCUCUCUGACUUGCACCUUCCUCGCCCUUAGAAGCAGGGAUUGCAAUGGAAUUCUCGGGUGCCAA,0.607
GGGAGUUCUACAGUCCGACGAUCUUCACACUGUAGUUAUUGCUUCAUUUACAGGUCCUCUGUGCUUAAUUGCUGUUUUUGUUGCUGUAGUACCUUAUGAAUUCUUAAUUCAUUGAGACUUAGUGACCAUCUGGUGGAAUUCUCGGGUGCCAA,0.471
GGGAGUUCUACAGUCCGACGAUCUUUUGACCCAAGUGUUUUAACUUAGUCCAGAAUAGUUUCCUUUGUCUUUUGUAACUUUACAGAGGAUCAAAGCCGUUCUUUUCCAUUUCUUGGCCAGGCCUGUACUCUCCUGGAAUUCUCGGGUGCCAA,0.338
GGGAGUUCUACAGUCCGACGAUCAAACCAUUUUGCUGUCCCUUUUCCUUUUUUGAUGUUCUUUCACCCUUUUCUGUUUGCUAAGUGAGGAUGAAAAAAUAACACUGUACUGCAAUAAGGGGAGAGUAACCCUGUGGAAUUCUCGGGUGCCAA,1.07
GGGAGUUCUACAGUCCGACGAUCUGUUUCUUGUCGUGAGGCACCUGCCAUGUCUGUUGCGUUUUCCUCGGCAGCGUGUAGGGCUUCAGCUUCCUGGGUUUUCACCCUUCCUGCAGGCACUGUGGGGUCCUGAGUGGAAUUCUCGGGUGCCAA,0.29
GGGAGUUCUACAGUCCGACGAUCAAUGAAAUAACUGCAACUAGAGAAAAAAAACUGUAUAAAAACAUUAAAUUGUCAGUAUUUUUGUAAGAUUCCGUUUUGUAAAGAGAAUAAUAUUCAAACACUUUUGUGGCUGGAAUUCUCGGGUGCCAA,0.618
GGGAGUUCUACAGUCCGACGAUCCUUUGAUACCUUUGCGGUCAUGUCUGUGUCUGAUGAGUGUAGAAUCUCUGGAUGUGCACUGUCAGUCAUGUGUCCACCAGGCCUCGAAUAUCAUAUGGGAAAUGUCAUAGUGGAAUUCUCGGGUGCCAA,0.275
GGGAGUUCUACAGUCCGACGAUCUCCAUAACGUAGCUAAGGCAUCUAAGAGUUUGCUGUUGAUAAUCUUGCUGACCAAAAACUACUGGAGAGUAACACAGGUUAUAUGCCAUCACAAAUACAAUGCUCAUGAAUGGAAUUCUCGGGUGCCAA,1.47

# Sample 4 — technique: protein-binding microarray; form: double-stranded DNA, one strand shown; sample: in vitro; tested at: 2540 nM top; notes: 60-bp whole probe; together with: salmon DNA 0.4 mg/ml; reference: random background probes; direction: higher = stronger binding; constant ends, left off below: GCCTAGCAC … GTCTTGATTCGCTTGACGCTGCTG
# Target: Interferon regulatory factor 3, full length, phosphomimetic (IRF3, Homo sapiens, UniProt Q14653, residues 1-427, S386D/S396D/S398D/S402D/T404D/S405D)
# UniProt Q14653, sequence (whole entry, unmodified, looked up): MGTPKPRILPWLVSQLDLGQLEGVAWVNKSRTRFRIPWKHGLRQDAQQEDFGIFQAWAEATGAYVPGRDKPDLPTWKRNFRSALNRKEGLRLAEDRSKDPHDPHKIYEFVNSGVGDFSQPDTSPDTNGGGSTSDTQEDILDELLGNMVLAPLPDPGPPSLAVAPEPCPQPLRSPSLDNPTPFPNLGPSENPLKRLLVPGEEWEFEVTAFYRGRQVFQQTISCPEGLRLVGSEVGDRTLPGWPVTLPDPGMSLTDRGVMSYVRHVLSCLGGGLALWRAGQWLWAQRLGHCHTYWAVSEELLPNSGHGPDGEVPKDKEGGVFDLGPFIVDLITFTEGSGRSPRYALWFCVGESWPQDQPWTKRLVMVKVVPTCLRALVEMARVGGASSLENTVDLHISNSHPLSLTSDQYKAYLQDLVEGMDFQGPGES
Strand,fitted relative affinity [z-score]
GACGATTCAAGTTTCGAGACGTGCTAG,1.81
GAAGGTCTCCTTATCCTGACGTGCTAG,2.51
GACTGTCTCCTTTTCCTGACGTGCTAG,4.41
GACAGTTCCGGTTTCGGGACGTGCTAG,6.5
TTAGTTATCGGGTATCGGTTAGTGCTA,1.17
TTAGGACTGCTAATCCTTTAGTGCTAG,-0.498
TCAAATTTCCCTCTGCTACTGTGCTAG,2.27
TTAGGTCTGGGTATCGGTTAGTGCTAG,0.378
GACGGTTTCGGGACTCGGGACGTGCTA,4.68
TTAGGAGTGCTACTGCTTTAGTGCTAG,-0.92
GACGGACTGGACACTAGGGACGTGCTA,-0.511
GACGGTTTCGGTCTCGGGAGGTGCTAG,8.89
TTAGGTTTCCTCCTCCTTTAGTGCTAG,4.4
GAGGGTCTCCTTATCCTGACGTGCTAG,1.38
TTAGGCCTCGGACTGGGTTAGTGCTAG,-1.02
TTAGGTTTGGGTTTCGGTTAGTGCTAG,3.67
TCATGTCTGTGTCACAGACTGTGCTAG,0.295

# Repeated from above (sample 1):
Strand,E-score
GGGCACAC,0.255
CCGCACGA,0.313
CTACACGC,0.4
CATGTGAG,0.444
CATGCATG,0.403
CCCTCCAC,0.263
TGGCCACA,0.346
CGTGTGTA,0.361
